Published values collected from several papers.
A part holds a random share of what one study measured. Changes are numbered by the printed parent chain.

Set 1 — target: CCNB1, cyclin fold, Cln2 fusion (human); technique: yeast growth competition, sequencing; medium: yeast; setting: strong parent motif; relative to: not given; reading: higher = stronger binding; quantity: normalised enrichment score
Starting sequence: E2F1 docking peptide (human); PPVKRRLDLETDH; partner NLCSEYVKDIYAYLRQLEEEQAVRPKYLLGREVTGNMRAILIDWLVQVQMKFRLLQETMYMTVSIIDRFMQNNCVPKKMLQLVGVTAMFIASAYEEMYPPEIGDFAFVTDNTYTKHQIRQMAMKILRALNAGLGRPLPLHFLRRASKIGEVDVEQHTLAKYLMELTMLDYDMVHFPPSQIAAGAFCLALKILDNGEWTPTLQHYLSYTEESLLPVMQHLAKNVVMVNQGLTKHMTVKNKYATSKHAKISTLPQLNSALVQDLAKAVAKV
Substitution = PPVKRRLDLETDQ [H13Q]; result = 1.74
Substitution = PPVKFRLDLETDH [R5F]; result = 0.399
Substitution = PPVKRRLDLETPH [D12P]; result = 2.06
Substitution = PPVKRRLDLETCH [D12C]; result = 0.81
Substitution = PPVKPRLDLETDH [R5P]; result = -0.989
Substitution = PPTKRRLDLETDH [V3T]; result = 0.284
Substitution = PIVKRRLDLETDH [P2I]; result = 0.356
Substitution = PPVNRRLDLETDH [K4N]; result = 1.51
Substitution = PPVKRRLDLDTDH [E10D]; result = 2.24

Set 2 — technique: protein-binding microarray; molecule type: double-stranded DNA, one strand shown; medium: in vitro; concentration: not given; reading: higher = stronger binding; quantity: E-score
Target: Max-binding protein MNT, bHLH-zipper, MAX partner unstated (MNT, Homo sapiens, UniProt Q99583, residues 220-300)
Setting: k-mer, scored over probes, only values ≥0.25
Residues (chain): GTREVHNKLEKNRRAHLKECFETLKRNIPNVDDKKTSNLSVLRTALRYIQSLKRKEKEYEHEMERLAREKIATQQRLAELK
Strand = CGTGTGTC; result = 0.349
Strand = CCGCCACC; result = 0.283
Strand = ATACACGA; result = 0.256
Strand = CGTGCACG; result = 0.457
Strand = ACATGTTC; result = 0.342
Strand = CGCCCGCC; result = 0.262
Strand = CCCATGCG; result = 0.419
Strand = ACGCGGGG; result = 0.376
Strand = CCACGCAC; result = 0.379

Set 3 — technique: protein binding microarray; molecule type: double-stranded DNA, one strand shown; medium: in vitro; concentration: not given; relative to: not given; reading: higher = stronger binding; quantity: E-score
Target: Histone acetyltransferase KAT6A, both winged helices, GST fusion (KAT6A, Homo sapiens, UniProt Q92794, residues 1-181)
Setting: 8-mer, flanks averaged, mean of 2 arrays, mostly near background
Construct (chain): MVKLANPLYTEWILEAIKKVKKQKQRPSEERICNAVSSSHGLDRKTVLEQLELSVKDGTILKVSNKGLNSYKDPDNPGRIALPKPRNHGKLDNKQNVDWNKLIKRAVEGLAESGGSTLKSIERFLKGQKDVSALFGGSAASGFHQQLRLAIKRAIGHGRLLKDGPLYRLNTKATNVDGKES
Strand = AATGCCAG; result = -0.0755
Strand = CCGGATTA; result = 0.0465
Strand = GTACATAC; result = -0.0596
Strand = ACGCTATC; result = 0.0512
Strand = CCGGAGTA; result = 0.129
Strand = CGGCAGAA; result = 0.175
Strand = AGATGAAT; result = -0.169
Strand = GCCGAAGC; result = 0.195
Strand = TGTCTGAA; result = 0.00242
Strand = CACCGGCA; result = 0.223
Strand = AAATAATA; result = -0.0524
Strand = ATAGAAAA; result = -0.124
Strand = ACCAACCA; result = -0.115
Strand = ACTGACCA; result = -0.103

Mixed results
Substance = PhoQ, residues 284 288 289 292 302 303 SCEHLI; target = PhoP, residues 12 14 15 18 19 LQHIR (Escherichia coli, UniProt P23836); test = Sort-seq, measured: YFP reporter; system = E. coli; conditions = PhoQ-PhoP variant library, together with: 10 µM Mg2+; scale = relative to: high Mg2+ state, higher = stronger signaling; quantity = fold induction; result = 2.81
